# Results gathered from unrelated publications.
# Each line is one published result; not all experiments were run side by side.
# Technique: steady-state kinetics
# B1: enzyme (Saccharomyces cerevisiae, UniProt P46969); chain MVKPIIAPSILASDFANLGCECHKVINAGADWLHIDVMDGHFVPNITLGQPIVTSLRRSVPRPGDASNTEKKPTAFFDCHMMVENPEKWVDDFAKCGADQFTFHYEATQDPLHLVKLIKSKGIKAACAIKPGTSVDVLFELAPHLDMALVMTVEPGFGGQKFMEDMMPKVETLRAKFPHLNIQVDGGLGKETIPKAAKAGANVIVAGTSVFTAADPHDVISFMKEEVSKELRSRDLLD
# B2: map (Escherichia coli, UniProt P0AE18); chain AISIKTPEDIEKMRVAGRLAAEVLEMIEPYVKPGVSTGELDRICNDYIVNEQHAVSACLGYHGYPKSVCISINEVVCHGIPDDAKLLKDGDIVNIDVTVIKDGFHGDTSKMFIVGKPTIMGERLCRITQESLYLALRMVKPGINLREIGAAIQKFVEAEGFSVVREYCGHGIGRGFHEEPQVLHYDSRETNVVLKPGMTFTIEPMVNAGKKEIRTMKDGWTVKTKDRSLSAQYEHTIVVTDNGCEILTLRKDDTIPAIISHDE
# B3: enzyme (Azotobacter vinelandii, UniProt C1DN94); chain MSESPLRLDRLRDFVSALGELLDRHPDEESVLREGRSLLGELVRHDDWLPEEFAQPDPERYQQYLLHADSRQRFSVVSFVWGPGQTTPVHDHRVWGLIGMLRGAEDAQSFELGAEGLRPIGDPVRLSPGQVEAVSPRIGDIHRVFNASPDQPSISIHVYGANIGAVRRAVYLPDGSEKPFISGYSNQFLPNIWDQSKESARP
# B4: enzyme W53Y (Thermoplasma volcanium, UniProt Q978S7); chain MAFHGLVKYSDITVEGYPKIQYHGFIGNNRTAMLVAMNGYIDYGCLPNFNSNAVFSSILDKNKGGYFAIFPSDTTDVYVDQYYKEMTNVLVTEFVKNGKIILRLTDFMPDSEYGKISFPEVHRFVESFSEPIDITIDFKPTFNYGQDKPIIEKDQHGFIFTTDKESIGISSEFPLRKNSDRIFGNVKMEPRSSSWIIALYGIHHLFRTTDYKSYLRLQETTDYWRKWASSSSYAGAYHSMVMRSALALKVLFYEPTGLMVAAPTASLPEAIGGERNWDYRFTWIRDTAYVIEALSSIGYKYEATEFLYDMMDMITRDNRIRTIYSIDDSNDLEERIIDYEGYRGSRPVRIGNKAVDQLQIDQYGSIVRAIHSMAKAGGIVNSYLWDFVEQVMAKIEYLWKYPDSSIWEFRTEPKQYVYSKVMSWAAFDSAISMAKDLGLSAPIKQWKSIQDEIKKEVLEKGFDTDTNSFVQYYGSKNIDAALLRLPILGFIPANDEKFLGTLSRIEKELMVDGYLFKRYREDDGLKGDEGSFLMLTFWYIEDLILMKRLKKAREVLESVLEKANHLGLYSEEIDEKSGDFLGNFPQALSHLGVIRVAPKLEEALLKRTSKINS
# B5: enzyme (Rhodospirillum rubrum, UniProt Q2RSU5); chain MSDSNDDRPFRPFQSQYRWPGVDLLAYKEEGSAPFRSVTRQVLFSGNGLTGELRYFEVGPGGHSTLERHQHAHGVMILKGRGHAMVGRAVSAVAPYDLVTIPGWSWHQFRAPADEALGFLCMVNAERDKPQLPTEADLAMLRADDAVAAFLDGLAG
# B6: enzyme (Cryptosporidium parvum, UniProt Q8IS93); chain MADLTFMYDLVVIGGGSGGMAAAKEAAKYGKKVALFDFVKPSTQGTKWGLGGTCVNVGCVPKKLMHYSALIASSIHHDAQMFGHKTSSSFEWGKLVETLRNHIRMLNFSYRTGLRVGNVEYINALAKLIDPHSVEYEDNGQKKTITSRYILLATGGRPSIPETVPGAIQYSITSDDIFFLSKSPGKTLVIGASYIGLETAGFLNELGFDTTVAMRSIPLRGFDRQCSEKIVEYMKATGTKFLVGVVPINIEKVNENIKVSFSDGSVEEFETVLYATGRNPDVKGLNLNAIGVEVSDSGKIIAPKDATSVPSIFAVGDIVEGRPELTPVAVKAGILLARRLFAGSNEFIDYDFVPTTVFTPIEYGHVGLSSEAAIAKYGEDDIEEYLSEFSTLEIAAAHREKPEHLRENEMDFALPLNCLAKLVVVKSQGEKVVGFHFVGPNAGEITQGFSLAVKLGATKKDFDDMIGIHPTDAEVFGILEVTKRSGESFVSSGGCGGGKCG
# B7: enzyme S446A (Methanosarcina mazei, UniProt Q8PVB1); chain MSEQRSVPLREHLLALKPCRHGGLIQETSETYGIPENEILDFSANFNPLGSPFDYPENGLNFEDIIKKSCGKLLEYPDNRYVEFREAAARFVGLGVTPQSIVPGNGSTEIVRLVVESVIEKGDKVLLPWPTFGEYEMQCRITGAEPVCPSQEEVNTLPDEVLEEAKILFICNPNNPTGKLRTREELKVLAERCREHKTLLYVDEAFIELSDPSQSVADLPAENNYVFVMRSLTKDFAIPGIRMGFGIAPPAMADILNTARLSWNLGAIANNTGIALLNIEGGIDSPYLKKAREMILKEGETLKAKIDRIRGFEAGEVNVNFILVDVSKFMLNSSELTARLAARGVLVRDCVSFHGLGKNYIRVAVRTEKENDRLIAAIGDVITEWGREQAKNELQHVIEKASEEGIGGRKTCEYYPCHFEGQNCTFCFCPFYPCENEKTGGKWIQASRGGRVWSCVDCHLVHKKEIAQKILDCLMHEGDTDELVKVAWKEVMEPIL
# B8: aspC A106G/A218G/F210I/I29V/I33V/I68L/I71L/N30D/N64T/S135A/T100S/V136I/V375I (Escherichia coli, UniProt P00509); chain MFENITAAPADPILGLADLFRADERPGKVDLGVGVYKDETGKTPVLTSVKKAEQYLLENETTKTYLGLDGLPEFGRCTQELLFGKGSALINDKRARTAQSPGGTGGLRVAADFLAKNTSVKRVWVSNPSWPNHKAIFNSAGLEVREYAYYDAENHTLDFDALINSLNEAQAGDVVLFHGCCHNPTGIDPTLEQWQTLAQLSVEKGWLPLIDFAYQGFGRGLEEDAEGLRAFAAMHKELIVASSYSKNFGLYNERVGACTLVAADSETVDRAFSQMKAAIRANYSNPPAHGASVVATILSNDALRAIWEQELTDMRQRIQRMRQLFVNTLQEKGANRDFSFIIKQNGMFSFSGLTKEQVLRLREEFGVYAVASGRINVAGMTPDNMAPLCEAIVAVL
# B9: enzyme (Pseudomonas poae, UniProt A0A2S9EJ63); chain MSTQHYDYIIVGGGSAGSVLANRLSAQADKRVLLIEAGADTPEHDTPTDILDGLQPWLPRLAGERYFWPGLNILRASEHGDIPREPQLYEQARILGGGSSVNMMVANRGLPRDYDEWARLGADGWDWQGVLPYFRKLERDLDFGHSHPEQHGQDGPIPIARVDSRHWGSFTRASAQALHTQGLNDIVDQNGRFEDGYFAPAVAIEHDQRVSSARAYLNAAVRARPNLSVWADTTVRQLTVKGQRVTGVQAVRDGRTVELAGDEVILAAGALQSPAFLLRAGIGPADQLRDLGIEVIADRPGVGRNLWDHSSIGLSASLHHPQVPSDEPGAAHLLAARVSSGVEPSVPGDLYLGIAPNAALGLASAVLWVNKPSSSGHLRLRSKDPADYPAVEFNLLSDRRDLERLRQGLRLLARVFAHPAVAAFSGPPRLSRFAQASNEGPLLSELLANDAQLERYLRTHVGGVWHASGTCRIGRADDPQAVVDHAGRVHGVQGLRVADASVFPSIPTANTNLPTLMIAEKIAEAILANA
# B10: BGLU7 (Oryza sativa, UniProt Q75I93); chain AAVPKPNWLGGLSRAAFPKRFVFGTATSAYQVEGMAASGGRGPSIWDAFAHTPGNVAGNQNGDVATDQYHRYKEDVNLMKSLNFDAYRFSISWSRIFPDGEGRVNQEGVAYYNNLINYLLQKGITPYVNLYHYDLPLALEKKYGGWLNAKMADLFTEYADFCFKTFGNRVKHWFTFNEPRIVALLGYDQGTNPPKRCTKCAAGGNSATEPYIVAHNFLLSHAAAVARYRTKYQAAQQGKVGIVLDFNWYEALSNSTEDQAAAQRARDFHIGWYLDPLINGHYPQIMQDLVKDRLPKFTPEQARLVKGSADYIGINQYTASYMKGQQLMQQTPTSYSADWQVTYVFAKNGKPIGPQANSNWLYIVPWGMYGCVNYIKQKYGNPTVVITENGMDQPANLSRDQYLRDTTRVHFYRSYLTQLKKAIDEGANVAGYFAWSLLDNFEWLSGYTSKFGIVYVDFNTLERHPKASAYWFRDMLKH
# Chain of UniProt P22309 (whole entry, looked up): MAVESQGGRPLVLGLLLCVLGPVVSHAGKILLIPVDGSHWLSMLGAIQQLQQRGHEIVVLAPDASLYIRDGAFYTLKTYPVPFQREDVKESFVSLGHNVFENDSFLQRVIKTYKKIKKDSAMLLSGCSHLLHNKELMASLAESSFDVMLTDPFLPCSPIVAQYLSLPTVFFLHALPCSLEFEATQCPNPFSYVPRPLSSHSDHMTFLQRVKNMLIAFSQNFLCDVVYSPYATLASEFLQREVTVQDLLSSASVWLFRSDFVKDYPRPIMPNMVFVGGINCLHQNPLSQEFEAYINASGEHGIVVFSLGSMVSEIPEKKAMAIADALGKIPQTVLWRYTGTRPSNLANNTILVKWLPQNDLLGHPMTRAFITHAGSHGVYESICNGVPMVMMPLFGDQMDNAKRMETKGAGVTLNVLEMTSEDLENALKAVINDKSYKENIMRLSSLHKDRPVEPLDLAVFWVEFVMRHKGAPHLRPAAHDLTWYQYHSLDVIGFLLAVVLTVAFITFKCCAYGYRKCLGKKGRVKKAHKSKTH
# Chain of UniProt P09546 (whole entry, looked up): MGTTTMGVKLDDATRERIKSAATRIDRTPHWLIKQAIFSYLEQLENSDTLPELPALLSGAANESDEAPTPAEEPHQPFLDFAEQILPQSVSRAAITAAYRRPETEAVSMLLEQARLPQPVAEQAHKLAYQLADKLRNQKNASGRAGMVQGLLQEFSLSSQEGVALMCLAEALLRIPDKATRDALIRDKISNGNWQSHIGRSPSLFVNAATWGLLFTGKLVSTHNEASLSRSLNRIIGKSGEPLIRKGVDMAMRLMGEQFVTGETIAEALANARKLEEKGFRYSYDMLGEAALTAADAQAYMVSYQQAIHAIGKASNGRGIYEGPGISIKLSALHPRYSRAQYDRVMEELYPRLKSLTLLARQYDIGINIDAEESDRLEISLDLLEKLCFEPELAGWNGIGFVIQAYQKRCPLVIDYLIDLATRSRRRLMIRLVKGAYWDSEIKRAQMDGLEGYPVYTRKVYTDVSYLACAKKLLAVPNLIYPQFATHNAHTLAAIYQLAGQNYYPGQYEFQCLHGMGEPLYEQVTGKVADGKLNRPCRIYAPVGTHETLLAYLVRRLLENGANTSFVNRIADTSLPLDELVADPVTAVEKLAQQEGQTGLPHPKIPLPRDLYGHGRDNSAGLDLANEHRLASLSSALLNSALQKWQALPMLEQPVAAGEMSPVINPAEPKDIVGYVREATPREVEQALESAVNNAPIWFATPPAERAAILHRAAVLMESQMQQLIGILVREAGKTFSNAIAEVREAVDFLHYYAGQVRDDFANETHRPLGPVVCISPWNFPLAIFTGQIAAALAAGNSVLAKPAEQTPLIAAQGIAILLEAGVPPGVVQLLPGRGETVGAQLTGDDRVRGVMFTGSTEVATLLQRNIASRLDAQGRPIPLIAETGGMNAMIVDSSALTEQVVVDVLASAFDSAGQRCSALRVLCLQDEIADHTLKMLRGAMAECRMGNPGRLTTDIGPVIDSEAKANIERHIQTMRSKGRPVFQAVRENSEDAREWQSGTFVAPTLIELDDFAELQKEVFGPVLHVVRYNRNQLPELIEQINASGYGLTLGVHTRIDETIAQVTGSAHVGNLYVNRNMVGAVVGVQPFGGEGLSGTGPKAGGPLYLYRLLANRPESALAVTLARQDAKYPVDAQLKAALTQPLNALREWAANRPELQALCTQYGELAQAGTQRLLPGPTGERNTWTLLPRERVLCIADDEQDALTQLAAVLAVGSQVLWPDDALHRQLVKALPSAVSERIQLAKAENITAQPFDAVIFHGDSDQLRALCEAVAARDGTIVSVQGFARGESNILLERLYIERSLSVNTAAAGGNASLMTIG
Molecule,substrate,conditions,Km
B1 (enzyme),O=C(CO)[C@H](O)[C@H](O)COP(=O)(O)O,"pH 8.8, 25 °C",180 µM
"enzyme (Ectocarpus siliculosus, UniProt D7FYY3)",Nc1ncnc2c1ncn2[C@@H]1O[C@H](COP(=O)(O)OP(=O)(O)O)[C@@H](O)[C@H]1O,"pH 5.5, 25 °C, added: 16 mM PEP",130 µM
B2 (map),CSCC[C@H](N)C(=O)Nc1ccc2c(C)cc(=O)oc2c1,added: Co2+,76 µM
B3 (enzyme),N[C@@H](CS)C(=O)O,"pH 8, 25 °C, added: O2",11400 µM
enzyme (UniProt A0A4R3LQ44),O=C(O)[C@H](O)[C@@H](O)[C@@H](O)CO,"pH 7.5, 50 °C",7200 µM
B4 (enzyme W53Y),OC[C@H]1O[C@H](O[C@H]2O[C@H](CO)[C@@H](O)[C@H](O)[C@H]2O)[C@H](O)[C@@H](O)[C@@H]1O,"pH 3.7, 30 °C",84200 µM
B5 (enzyme),CSCC(=O)[C@@H](O)[C@H](O)COP(=O)(O)O,added: DTT,39 µM
"UGT1A1 (Homo sapiens, UniProt P22309)",C[C@]12CC[C@@H]3c4ccc(O)cc4CC[C@H]3[C@@H]1CC[C@@H]2O,"37 °C, not purified",18 µM
B6 (enzyme),NC(=O)C1=CN([C@@H]2O[C@H](COP(=O)(O)OP(=O)(O)OC[C@H]3O[C@@H](n4cnc5c(N)ncnc54)[C@H](OP(=O)(O)O)[C@@H]3O)[C@@H](O)[C@H]2O)C=CC1,"pH 7.4, added: DTNB 4 mM",17.9 µM
"putA (Escherichia coli, UniProt P09546)",CC1=CC(=O)c2ccccc2C1=O,"pH 7.4, 20 °C, added: proline 200 mM",79 µM
B7 (enzyme S446A),Nc1ncnc2c1ncn2[C@@H]1O[C@H](COP(=O)(O)OP(=O)(O)OP(=O)(O)O)[C@@H](O)[C@H]1O,"pH 8.5, 25 °C, apparent, anoxic, added: L-Thr 10 mM",133 µM
"UGT1A1 (Homo sapiens, UniProt P22309)",O=c1c(O)c(-c2ccc(O)c(O)c2)oc2cc(O)ccc12,"37 °C, not purified",2.7 µM
B8,N[C@@H](Cc1ccccc1)C(=O)O,"pH 7.5, 25 °C, added: PLP 20 µM",12000 µM
B9 (enzyme),COc1cc(CO)ccc1O,"pH 8, 30 °C",1590 µM
B10 (BGLU7),O=[N+]([O-])c1ccc(O[C@@H]2O[C@H](CO)[C@@H](O)[C@H](O)[C@H]2O)cc1,"pH 6, 30 °C, not purified",6470 µM
"enzyme (Rhodopseudomonas palustris, UniProt Q6N7F5)",CC(C)C(=O)O,"pH 7.5, 37 °C",72.3 µM

# Repeated from above:
Molecule,substrate,conditions,Km
B3 (enzyme),N[C@@H](CS)C(=O)O,"pH 8, 25 °C, added: O2",11400 µM
